Results of several laboratories.
Compare with care: the assays were run in different laboratories. “And” joins repeats or separate records; there may be more than shown. ± gives the spread as reported.

Structure (SMILES)	test	test system	setting	how to read	quantity	result
Cl.NCc1ccc2c(c1)CN(C1CCC(=O)NC1=O)C2=O (stereo not drawn)		male cynomolgus monkey, whole blood	3 h		remaining compound	< 1%
COc1cccc(OC)c1-c1cc(C(=O)NC2(C(=O)O)C3CC4CC(C3)CC2C4)nn1-c1ccc(C(=O)N(C)CCCN(C)CCCN(C)C(=O)[C@H](CCCCNC(=O)[C@H](CC(C)C)NC(=O)C2OC2C(=O)O)NC(=O)CN2CCN(CC(=O)[O-])CCN(CC(=O)[O-])CCN(CC(=O)[O-])CC2)cc1C(C)C.[177Lu+3] (mixture of isomers)		mouse, HT-29 xenograft, lung	4 h post injection		tissue uptake	2.7 %ID/g
O=C(C1CCN(c2nnnn2-c2ccccc2)CC1)N1CCCc2ccccc21	equilibrium dialysis	mouse, plasma			unbound fraction	10%
CC(C)(C)C(=O)Nc1ccc2[nH]c(CN3CCC(N(CCCN4CCOCC4)CC4OC(n5cnc6c(N)ncnc65)C(O)C4O)CC3)nc2c1 (stereo not drawn)		male Sprague-Dawley rat, plasma	intravenous, 20 mg/kg, 45 min		concentration	667 ng/mL
COc1ccccc1/C=C/CNCC(O)COc1ccc(Nc2ccccc2)cc1 (racemic)		mouse, plasma	oral, 10 mg/kg		MRT(0-t)	0.69 h
CN(Cc1ccccc1)C(=O)CN1CCN(CC(=O)[O-])CCN(CC(=O)[O-])CC1.[44Sc+3]		mouse, liver	intravenous, 1 h		tracer uptake	2.34 %ID/g
Cc1nn(-c2nc3c(F)cc(F)cc3s2)c(O)c1C(c1ccc(C(F)(F)F)cc1)c1c(C)nn(-c2nc3c(F)cc(F)cc3s2)c1O		ICR mouse, plasma	oral, 50 mg/kg		CL/F observed	2.16 mL/min/kg and 2.35 mL/min/kg and 2.17 mL/min/kg
CC(C)n1ncc2c(C(=O)NC[C@@H](C)N)cc(C3CC3)nc21		female BALB/c mouse, plasma	intraperitoneal, 30 mg/kg, 2 h		concentration	1080 ng/mL
COC1C=COC2(C)Oc3c(C)c(O)c4c(c3C2=O)C2=NC3(CCN(CC(C)C)CC3)NC2=C(NC(=O)C(C)=CC=CC(C)C(O)C(C)C(O)C(C)C(OC(=O)Nc2cnccn2)C1C)C4=O (stereo not drawn)		CD-1 mouse female, plasma	intravenous, 5 mg/kg		elimination rate constant	4.89e-05 s⁻¹
CN(Cc1ccccc1)C(=O)CN1CCN(CC(=O)[O-])CCN(CC(=O)N(C)Cc2ccccc2)CC1.[44Sc+3]		mouse, brain	intravenous, 1 h		tracer uptake	0.09 %ID/g
C/C(N)=N/C(=N\S(=O)(=O)c1ccc(C(F)(F)F)cc1)N1C[C@H](c2ccccc2)C(c2ccc(Cl)cc2)=N1		C57BL/6 mouse, plasma	intravenous, 10 mg/kg		AUC(0-inf)	10500 ng·h/mL
COC(=O)[C@@]1(C)C=C(C(=O)Nc2cccc(C(=O)Nc3ccc(Nc4nccc(-c5cccnc5)n4)c(C)c3)c2)C(=O)CC1		Wistar rat male, primary hepatocytes			scaled intrinsic clearance	294 mL/min/kg
CCC(CC)CNC(=N)NC(=N)NCCCCCCNC(=N)NC(=N)NCC(CC)CC	metabolic stability	monkey, hepatocytes	1 µM		half-life	2.81 h
CCCCN1C(=O)c2cccc3c(NCCCN4CCOCC4)ccc(c23)C1=O		acetonitrile			fluorescence lifetime	7.1 ns
CCCCCCCCCCCCCCCC(=O)N[C@@H](CCCCN)C(=O)N[C@@H](CCCCN)C(=O)N[C@@H](CO)C(=O)N[C@@H](CCCNC(=N)N)C(=O)N[C@@H](C)C(=O)N[C@@H](CC(C)C)C(=O)N[C@@H](Cc1ccccc1)C(N)=O		human patients, plasma	intravenous, 0.5 mg/kg over 2 h		Vss	0.1 L/kg
CN([O-])C(=O)CN1CCN(CC(=O)N(C)[O-])CCN(Cc2ccccn2)CC1.[89Zr+4]	radio-TLC	human serum	7 days, run 1		intact complex	86.9%
N=C(N)NCCC[C@@H]1NC(=O)[C@H](CO)NC(=O)[C@@H](NC(=O)[C@H](CO)NC(=O)[C@H](CO)NC(=O)[C@H](Cc2c[nH]c3ccccc23)NC(=O)CNC(=O)[C@H](CO)NC(=O)[C@@H](N)Cc2c[nH]c3ccccc23)CSSC[C@@H](C(=O)NCC(=O)O)NC(=O)[C@H](CO)NC1=O		patients, plasma	intravenous, 10 mg/kg, thrice weekly, mean		AUC(0-80 min)	951 ng·h/mL
CC(C)(O)c1ncc([S@](N)(=O)=NC(=O)Nc2c3c(cc4c2CCC4)CCC3)s1	item: immune system disorders	healthy human	oral, 300 mg, CS formulation		subjects with TEAEs	17%
Cc1ncsc1-c1ccc(CNC(=O)[C@@H]2C[C@@H](O)CN2C(=O)[C@@H](NC(=O)COCC(C)(COCCOCCOCCNC(=O)C[C@@H]2N=C(c3ccc(Cl)cc3)c3c(sc(C)c3C)-n3c(C)nnc32)COCCOCCOCCNC(=O)C[C@@H]2N=C(c3ccc(Cl)cc3)c3c(sc(C)c3C)-n3c(C)nnc32)C(C)(C)C)cc1		male C57BL/6 mouse, plasma	intravenous, 5 mg/kg, 2 h, single dose		concentration	2970 ng/mL
O=C([O-])CN1CCN(CC(=O)[O-])CCN(CC(=O)[O-])CC1.[44Sc+3]		mouse, spleen	intravenous, 1 h		tracer uptake	0.09 %ID/g

Structure (SMILES)	test	test system	setting	how to read	quantity	result
Cc1cc(-c2ccc(C(=O)[C@@H]3CCCC[C@H]3C(=O)Nc3cnn4c3C(=O)NCC4)cc2)[nH]n1		human, urine	oral, 200 mg, 0-12 h	relative to: dose	cumulative radioactivity recovery	4.14% and 5.28% and 4.36% and 4.58% and 4.62% and 5.48%
Oc1ccc([C@@H]2Oc3ccc(O)cc3[C@@H]3CCC[C@@H]32)cc1		mouse, plasma	intravenous, 1 mg/kg		CL/F	0.1 L/h
O=C([O-])CN1CCN(CC(=O)[O-])CCN(C(CO)C(O)CO)CCN(CC(=O)[O-])CC1.[Dy+3] (stereo not drawn)	ICP-MS	cynomolgus monkey	dose not given, 1 d 24 h, mass balance group	relative to: dose	cumulative urinary excretion	95.9%
CCn1c(=O)c(-c2cc(NC(=O)Nc3ccccc3)c(F)cc2Br)cc2cnc(N)cc21		human plasma	4000 ng/mL, 1 weeks, 4 °C, high QC		mid-term stability accuracy	-11.6%
CC(=O)N([O-])CCCCCNC(=O)CCC(=O)N([O-])CCCCCNC(=O)CCC(=O)N([O-])CCCCCN.[89Zr+4]	radio-TLC	aqueous buffer	1 d, pH 8.5, 37 °C, 89Zr-labelled complex, with: DTPA 100-fold excess		intact complex	100%
COc1cccc(OC)c1-c1cc(C(=O)NC2(C(=O)O)C3CC4CC(C3)CC2C4)nn1-c1ccc(C(=O)N(C)CCCN(C)C(=O)[C@H](CCCCNC(=O)[C@H](CC(C)C)NC(=O)C2OC2C(=O)O)NC(=O)CN2CCN(CC(=O)[O-])CCN(CC(=O)[O-])CCN(CC(=O)[O-])CC2)cc1C(C)C.[177Lu+3] (mixture of isomers)		mouse, HT-29 xenograft, lung	168 h post injection		tissue uptake	0.26 %ID/g
CC[C@H](C)[C@@H]1NC(=O)[C@H](Cc2ccc(O)cc2)NC(=O)CCCSC[C@@H](C(=O)N(CC(=O)N[C@@H](CC(C)C)C(=O)NCC(N)=O)Cc2ccc(F)cc2)NC(=O)[C@H](CC(N)=O)NC(=O)[C@H](CCC(N)=O)NC1=O		healthy human females, plasma	intranasal, 400 µg single dose		AUC(0-last)	0.127 ng·h/mL
O=C(Nc1cnccc1-c1ccc([18F])nc1)c1ccnc(NC(=O)C2CC2)c1	ex vivo gamma counting	GSK-3β transgenic mice, early-stage, cortex	intravenous, 120 min, mean, P-gp inhibitor pretreatment, with: tariquidar 15 mg/kg iv		SUV	0.063
C=CC(=O)Nc1cc(Nc2nccc(-c3cn(C)c4ccccc34)n2)c(OC)cc1N(C)CCNC		human, dried blood spots	270 ng/mL, 30 d, -80 °C, high QC level		remaining compound	98.8%
Cc1ccc(=O)n(-c2ccc(O)cc2)c1		BALB/c mouse, plasma	oral, 1.0 mmol/kg		CL/F	317 ± 30.3 mL/min/kg
CCc1cnc(NC(=O)c2cc(S(=O)(=O)N3CCOCC3)ccc2N(C)C2CCCC2)s1		mouse, blood	10 mg/kg, 3 doses		Lymphocytes differential count	66.7%
N#C[C@@H]1CCCN1C(=O)CNC(=O)c1ccnc2ccc(OCCCN3CCN(C(=O)CCc4ccc5c(c4)CN4CCN6CC(=O)[O][68Ga-]([O]C(=O)C4)([O]5)[O]c4ccc(CCC(=O)N5CCN(CCCOc7ccc8nccc(C(=O)NCC(=O)N9CCC[C@H]9C#N)c8c7)CC5)cc4C6)CC3)cc12		BALB/c nude mice, U-87 MG tumour	120 min post-injection	relative to: tumour over liver	tumour-to-organ ratio	10.3 ± 1.26
O=C1NC(=O)/C(=C/c2ccc3ncnc(N4CCC(F)CC4)c3n2)S1					logP	1.77
COc1cccc(OC)c1-c1cc(C(=O)NC2(C(=O)O)C3CC4CC(C3)CC2C4)nn1-c1ccc(C(=O)N(C)CCOCCOCCN(C)C(=O)[C@H](CCCCNC(=O)[C@H](CC(C)C)NC(=O)C2OC2C(=O)O)NC(=O)CN2CCN(CC(=O)[O-])CCN(CC(=O)[O-])CCN(CC(=O)[O-])CC2)cc1C(C)C.[177Lu+3] (mixture of isomers)		mouse, HT-29 xenograft	24 h post injection, biodistribution	relative to: tumour over muscle uptake	tumour-to-muscle ratio	42
CC[C@H](C)/C=C/C=C/C=C/C(O)=C/C(=O)C(F)(F)Cl		C57BL/6 mice, female, plasma	oral, 25 mg/kg		MRT	2.3 h
CN(Cc1ccccc1)C(=O)CN1CCN(CC(=O)[O-])CCN(Cc2cccc(C(=O)[O-])n2)CC1.[18F-].[Sc+3]		mouse, bone	intravenous, 1 h		tracer uptake	0.27 %ID/g
C=C(NC(=O)c1csc(-c2nc3c(cc2O)-c2nc(cs2)C(=O)NC(C(C)O)C(=O)NC(=C(C)OC)c2nc(cs2)C(=O)NC2c4nc(cs4)C(=O)NC(COC(=O)c4c5c6c(cccc6n4O)COC(=O)C(OC4CC(C)(O)C(N(C)C)C(C)O4)C2OC5)c2nc-3cs2)n1)C(N)=O (stereo not drawn)		Sprague-Dawley rats, male, plasma	intravenous infusion, 6 mg/kg, day 1, multiple dosing		apparent clearance CL/F	66.9 mL/min/kg
O=C([O-])CN1CCN(CC(=O)[O-])CCN(Cc2cccc(C(=O)[O-])n2)CC1.[18F-].[Sc+3]		mouse, muscle	intravenous, 1 h		tracer uptake	0.06 %ID/g
O=C(Nc1cnccc1-c1ccc([18F])cc1)c1ccnc(NC(=O)C2CC2)c1	ex vivo gamma counting	GSK-3β transgenic mice, late-stage, large intestine	intravenous, 120 min		mean SUV	0.67
